Experimental data of several laboratories.
Numbered parts are unrelated; each lists some results of a single study. Positions count from the first letter of the parent shown.

Study 1 — target: CCNE1, cyclin fold, Cln2 fusion (human); method: yeast growth competition, sequencing; sample: yeast; notes: strong parent motif; baseline: not given; direction: higher = stronger binding; starting sequence: viral docking peptide; TSVRRALFTGGSD
Change	normalised enrichment score
TSVRRALFTGGCD [S12C]	5.69
TSVRRALFTCGSD [G10C]	5.44
TSVRRAQFTGGSD [L7Q]	0.0582
TSVRRALFTGGAD [S12A]	5.21
TSVRRALFTPGSD [G10P]	5.24
TSVRRAYFTGGSD [L7Y]	0.511
TSVHRALFTGGSD [R4H]	0.236
ASVRRALFTGGSD [T1A]	6.04
TSVRRALFTIGSD [G10I]	5.19
TSVRNALFTGGSD [R5N]	0.558
TSVRRDLFTGGSD [A6D]	1.05
TSVRRALFDGGSD [T9D]	4.61
TSPRRALFTGGSD [V3P]	1.42
TSLRRALFTGGSD [V3L]	0.704

Study 2 — method: protein-binding microarray; molecule type: double-stranded DNA, one strand shown; sample: in vitro; concentration: 250 nM; notes: 60-bp whole probe; added: salmon DNA 0.4 mg/ml; baseline: random background probes; direction: higher = stronger binding; shared flanks, not repeated: GCCTAGCAC … GTCTTGATTCGCTTGACGCTGCTG
Target: Interferon regulatory factor 7, full length, phosphomimetic (IRF7, Homo sapiens, UniProt Q92985, residues 1-503, S101K/S471D/S472D/S475D/S476D/S477D/S483D/S484D/S487D)
Construct (chain): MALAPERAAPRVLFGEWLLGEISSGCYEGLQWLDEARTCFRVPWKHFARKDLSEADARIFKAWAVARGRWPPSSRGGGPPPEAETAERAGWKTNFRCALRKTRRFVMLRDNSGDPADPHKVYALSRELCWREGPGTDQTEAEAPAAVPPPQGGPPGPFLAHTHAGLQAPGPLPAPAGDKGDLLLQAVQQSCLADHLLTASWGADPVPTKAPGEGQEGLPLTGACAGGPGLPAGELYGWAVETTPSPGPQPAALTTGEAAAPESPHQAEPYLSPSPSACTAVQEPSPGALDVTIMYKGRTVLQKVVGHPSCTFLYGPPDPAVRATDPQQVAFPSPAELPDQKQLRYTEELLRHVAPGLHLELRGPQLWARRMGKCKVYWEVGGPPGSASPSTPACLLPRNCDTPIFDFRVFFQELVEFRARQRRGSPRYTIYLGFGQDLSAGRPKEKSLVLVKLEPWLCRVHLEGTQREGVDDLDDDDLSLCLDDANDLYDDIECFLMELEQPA
Strand	log fluorescence
TTAGGTCTCCTACTGCTTCAGTGCTAG	-0.338 z-score
TCAGTTTGCCTCCTTCAGACTGTGCTA	0.321 z-score
TTAGATCTCAGTTTCTATTAGTGCTAG	3.13 z-score
AAAAAAATCATTTTCTCTGTGTGCTAG	0.168 z-score
TCAACTTTCTTTACTTCACTGTGCTAG	0.872 z-score
GACGGTTTCGGGTTCGGGACGTGCTAG	10.2 z-score
TTAGGTCTCGGTTTCGCTTAGTGCTAG	9.44 z-score
GATGGTTTCGGTTCCGGGACGTGCTAG	13.8 z-score

Study 3 — target: inorganic phosphate, free oxyanion; method: microfluidic competitive inhibition; sample: in vitro, cell-free expressed; concentration: not given; direction: lower = stronger binding
Notes: derived from inhibition constants, unchanged parent 615000 nM
Starting sequence: PafA, mature enzyme, eGFP fusion (Elizabethkingia meningoseptica, UniProt Q9KJX5); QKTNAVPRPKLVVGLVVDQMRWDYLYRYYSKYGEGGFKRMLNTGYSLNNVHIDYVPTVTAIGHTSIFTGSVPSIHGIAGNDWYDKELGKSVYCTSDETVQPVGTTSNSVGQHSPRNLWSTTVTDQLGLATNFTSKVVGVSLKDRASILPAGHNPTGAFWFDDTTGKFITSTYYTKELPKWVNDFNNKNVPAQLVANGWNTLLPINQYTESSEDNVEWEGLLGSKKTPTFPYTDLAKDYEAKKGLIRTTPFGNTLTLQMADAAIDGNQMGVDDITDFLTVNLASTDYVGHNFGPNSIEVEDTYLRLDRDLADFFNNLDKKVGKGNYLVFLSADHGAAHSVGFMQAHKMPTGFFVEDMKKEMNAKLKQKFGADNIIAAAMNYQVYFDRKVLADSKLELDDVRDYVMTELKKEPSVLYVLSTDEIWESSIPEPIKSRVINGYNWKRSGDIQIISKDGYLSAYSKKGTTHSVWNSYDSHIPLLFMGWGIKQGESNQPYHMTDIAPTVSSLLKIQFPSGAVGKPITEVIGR
Change	phosphate dissociation constant [µM]
I263G	391
S30V	637
A377V	560
K365G	724
S467G	385
E421V	678
T171V	611
K2G	535
S295G	461
S433G	445
D124V	370
P72V	518
P512G	405
P178V	600
W469V	302
G321A	580
T164V	576
T133V	668
H63V	93.9
Q125V	511
P428G	484
Q343G	443
G165A	524
T274V	684
F184V	597

Study 4 — method: RNAcompete; molecule type: RNA; sample: in vitro; concentration: 20 nM; notes: 7-mer, probes averaged, single round; baseline: mean of 7-mers; direction: higher = stronger binding
Target: PABPC1L2, full length, GST fusion (mouse, UniProt A0ABA7IW68)
Residues (chain): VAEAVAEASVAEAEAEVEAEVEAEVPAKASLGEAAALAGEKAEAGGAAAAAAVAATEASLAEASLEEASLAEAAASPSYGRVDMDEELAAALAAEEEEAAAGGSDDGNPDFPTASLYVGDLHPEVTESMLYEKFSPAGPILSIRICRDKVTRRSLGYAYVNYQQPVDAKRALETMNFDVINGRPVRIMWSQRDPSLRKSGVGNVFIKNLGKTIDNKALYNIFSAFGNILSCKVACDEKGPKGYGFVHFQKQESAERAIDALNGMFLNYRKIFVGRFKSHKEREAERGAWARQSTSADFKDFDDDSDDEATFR
Strand	7-mer Z-score
UGAGACC	0.017
UAGUCCG	-0.383
CGAAAGA	0.369
CGCAAUU	-0.231
AGUAGUG	-0.0464
UUUUUCC	-0.269
CGCCCCG	-0.34
UAAGGCU	0.00254
